Measurements from different studies.
Parts stem from different laboratories: compare values within a part only.

Sample 1 — technique: RNA Bind-n-Seq; form: RNA; sample: in vitro; concentration: 1 µM; setting: whole 134-nt RNA, ends assumed; with: 150 mM KCl; relative to: input library; reading: higher = stronger binding
Target: Ras GTPase-activating protein-binding protein 1, C-terminal RGG region (G3BP1, Homo sapiens, UniProt Q13283)
Chain of UniProt Q13283 (whole entry, looked up): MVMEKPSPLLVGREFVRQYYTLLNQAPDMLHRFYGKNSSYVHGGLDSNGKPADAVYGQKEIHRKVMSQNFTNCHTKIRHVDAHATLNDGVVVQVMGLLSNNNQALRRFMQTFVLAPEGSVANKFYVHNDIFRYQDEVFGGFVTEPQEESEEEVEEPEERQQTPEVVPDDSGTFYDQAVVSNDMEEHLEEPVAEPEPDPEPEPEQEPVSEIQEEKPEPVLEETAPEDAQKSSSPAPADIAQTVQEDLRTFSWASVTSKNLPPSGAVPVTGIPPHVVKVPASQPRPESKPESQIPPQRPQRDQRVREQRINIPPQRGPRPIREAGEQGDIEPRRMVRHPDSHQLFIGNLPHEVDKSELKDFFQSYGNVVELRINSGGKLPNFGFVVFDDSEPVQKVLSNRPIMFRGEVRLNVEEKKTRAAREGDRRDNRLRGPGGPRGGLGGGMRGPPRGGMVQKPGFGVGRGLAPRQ
`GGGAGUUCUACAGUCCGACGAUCGUCCUGUGCUACACAUCGUAUGUACCGAAUCGGAAAAAAGGAAAAAAGGGGAAAAAAGGAAAGUAUUAUGUUACGCCGUUCGGAUCUGCAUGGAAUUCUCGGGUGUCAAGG` gave a log2 enrichment of -1.36.
The log2 enrichment of `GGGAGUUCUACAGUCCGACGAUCUCAAGUCCUGUGCUACACAUCGUAUGUACCGAAUCGGUGGUUUGGUUUUUUUGGAAAGUAUUAUGUUACGCCGUUCGGAUCUGCACUUCCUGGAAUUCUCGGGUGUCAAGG` is reported as -1.31.
`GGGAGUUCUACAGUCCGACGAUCGAGGGAGUUUGCAGAUACCUCAGGAUUCGUGACAAUGCCUUUAAAGAUCCAGGAGAGAUGUUCAGCUACUAGGAACUGCUAGCAAGUAUAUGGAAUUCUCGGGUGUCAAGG` gave a log2 enrichment of -0.963.
The log2 enrichment of `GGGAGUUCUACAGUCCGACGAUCAAGUCCUGUGCUACACAUCGUAUGUACCGAAUCAAACCCAAAUUUUUAAACCCAAAAAAGUAUUAUGUUACGCCGUUCGGAUCUGCACUUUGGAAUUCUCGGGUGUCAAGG` is reported as -1.06.
`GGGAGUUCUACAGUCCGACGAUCACCAUGCAGGUGUGCAUCUUUGGGAAGUGGGGCAAGGGGGGGAUAGGGAGGGGGGUAACACUUUGGGAACAGGUGGUCCCAGGUCGUUUCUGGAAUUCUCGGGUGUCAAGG` gave a log2 enrichment of -1.68.

Sample 2 — technique: universal PBM; form: double-stranded DNA, one strand shown; sample: in vitro; concentration: not given; reading: higher = stronger binding
Target: Sal-like protein 4, full length isoform B (SALL4, Homo sapiens, UniProt Q9UJQ4-2, residues 1-616)
Setting: 8-mer, flanks averaged, mean of replicates
Construct (chain): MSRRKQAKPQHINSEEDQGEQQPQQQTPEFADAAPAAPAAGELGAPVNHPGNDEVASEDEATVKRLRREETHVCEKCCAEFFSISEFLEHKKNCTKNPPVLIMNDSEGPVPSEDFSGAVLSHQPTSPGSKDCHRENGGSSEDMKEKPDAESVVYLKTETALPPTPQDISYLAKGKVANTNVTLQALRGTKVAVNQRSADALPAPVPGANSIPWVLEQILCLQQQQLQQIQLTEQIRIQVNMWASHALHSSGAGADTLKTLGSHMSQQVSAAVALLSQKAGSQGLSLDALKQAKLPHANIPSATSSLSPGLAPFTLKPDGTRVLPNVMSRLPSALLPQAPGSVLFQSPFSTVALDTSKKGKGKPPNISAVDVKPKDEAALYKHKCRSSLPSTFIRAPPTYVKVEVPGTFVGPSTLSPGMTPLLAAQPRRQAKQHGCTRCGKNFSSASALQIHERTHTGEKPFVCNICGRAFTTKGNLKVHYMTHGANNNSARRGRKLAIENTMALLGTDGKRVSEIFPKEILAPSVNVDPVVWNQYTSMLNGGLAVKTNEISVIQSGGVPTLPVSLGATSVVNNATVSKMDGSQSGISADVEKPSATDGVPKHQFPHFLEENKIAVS
`CATCATAG` has an E-score of 0.103.
With `ACGTCGCT` the E-score was -0.13.
The E-score of `GCAAGTAC` is reported as 0.103.
`GCTACGTA` has an E-score of 0.00971.
`CACACTGG` has an E-score of -0.189.
The E-score of `CATACACC` is reported as -0.0928.
`ATGCCACC` has an E-score of -0.218.
For `GGTGGCCA`, the E-score was -0.174.
With `ACTTACGG` the E-score was -0.00458.
`GGACTAGA` gave an E-score of -0.0851.
For `ACTCAGTA`, the E-score was 0.0162.
With `GATGGTAC` the E-score was -0.0688.
With `CGCCACAA` the E-score was -0.0378.
With `CCTGACTC` the E-score was -0.175.

Sample 3 — technique: RNA Bind-n-Seq; form: RNA; sample: in vitro; concentration: 365 nM; relative to: no-protein control; reading: higher = stronger binding
Target: RNA binding protein fox-1 homolog 2, RRM domain, GST-SBP tag (RBFOX2, Homo sapiens, UniProt O43251-10, residues 100-194)
Setting: natural RNA segment, single round, ends assumed
Construct (chain): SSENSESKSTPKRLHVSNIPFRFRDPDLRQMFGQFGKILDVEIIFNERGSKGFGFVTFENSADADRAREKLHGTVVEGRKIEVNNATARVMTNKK
Under “RBNS enrichment (R)”, `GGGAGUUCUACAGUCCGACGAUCGGCGAAGCUGUGUUGACUGGGAGAGCGUUGGAAAUUGAGACAUGGAGAGAUGACGGGAGUGCGUUUCUCUGGGUUUGAUCUCCAUCCUGUUUUCUCCCAGACACACCACAUGGAAUUCUCGGGUGCCAA` is recorded as 0.413.
Under “RBNS enrichment (R)”, `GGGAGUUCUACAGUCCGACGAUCGGCACCCAGACCACUGCCCACCAGUGACGGACAUGCACGUGGCAGAUCAUGAUUUCCAGCCCACGGAGCCAGCAUUUGAACCUUGUAUAAUUAACUUUCAGUUAUGAUUUUGGAAUUCUCGGGUGCCAA` is recorded as 1.11.
`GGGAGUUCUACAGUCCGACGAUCUGAUAUAGUGUUACUGUGAGCCUGUCAGUAGUGGGUACCAAUCUUUUGUGACAUAUUGUCAUGCUGAGGUGUGACACCUGCUGCACUCAUCUGAUGUAAAACCAUCCCAGUGGAAUUCUCGGGUGCCAA` — result for “RBNS enrichment (R)”: 0.295.
Under “RBNS enrichment (R)”, `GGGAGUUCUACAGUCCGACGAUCAUGAGUAACCUAAGGGAAGUGCUGAAUGGUGUUGGCAGGGGUAUUAAACGUGCAUUUUUACUCAACUACCUCAGGUAUUCAGUAAUACAAUGAAAAGCAAAAUUGUUCCUUGGAAUUCUCGGGUGCCAA` is recorded as 0.386.
`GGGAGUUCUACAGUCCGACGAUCAAGAAAAACAUGUCUUUUCAAAAUGAGAGGCUUUCAUUGAAGAAAAGAAAAAAACAACAGUUAAAAGUUUUGGCUCUCUGUUUCAUUUUUUUCCAUUAAGAAAAAAAAAAUGGAAUUCUCGGGUGCCAA` — result for “RBNS enrichment (R)”: 0.9.
`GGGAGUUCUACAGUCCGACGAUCUUAACACUUGUUACCUAAUGAACAAGGAGGAUGUGCAUUUCGGGUUUCUUUUGAUAUUCGUGGAGGUGAUUGUCAGUGUUUAAACAGGACUACUUUCUCCACUAUGAAGAUGGAAUUCUCGGGUGCCAA` — result for “RBNS enrichment (R)”: 0.335.
For `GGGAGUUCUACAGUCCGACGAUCGAAGAGGACGAAGAAGAUUACGACUCCUACGCCUUCUGCCCCCCAGACCAUAGCCCCUUUUAGUUGGUUUUAGUUGCUCUGGGGGGAGGAGAGAAGGUAGAGCUGUUCUUUGGAAUUCUCGGGUGCCAA`, “RBNS enrichment (R)” read 0.411.
Under “RBNS enrichment (R)”, `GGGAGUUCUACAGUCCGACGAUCUAUAAAUCCAUGAAGCUGCUUGUCUCAUAAAGUAGAACUGAUACAAAUUUUGGUUGGAUAUAUAGAGAAUUUUAUAAAUGUAUUGCCUUAGAAUUUCUGGGUGGAGACCCUGGAAUUCUCGGGUGCCAA` is recorded as 0.716.

Sample 4 — technique: protein-binding microarray; form: double-stranded DNA, one strand shown; sample: in vitro; concentration: 250 nM; setting: 60-bp whole probe; with: salmon DNA 0.4 mg/ml; relative to: random background probes; reading: higher = stronger binding; constant ends, left off below: GCCTAGCAC … GTCTTGATTCGCTTGACGCTGCTG
Target: Interferon regulatory factor 7, full length, phosphomimetic (IRF7, Homo sapiens, UniProt Q92985, residues 1-503, S101K/S471D/S472D/S475D/S476D/S477D/S483D/S484D/S487D)
Chain of UniProt Q92985 (whole entry, unmodified, looked up): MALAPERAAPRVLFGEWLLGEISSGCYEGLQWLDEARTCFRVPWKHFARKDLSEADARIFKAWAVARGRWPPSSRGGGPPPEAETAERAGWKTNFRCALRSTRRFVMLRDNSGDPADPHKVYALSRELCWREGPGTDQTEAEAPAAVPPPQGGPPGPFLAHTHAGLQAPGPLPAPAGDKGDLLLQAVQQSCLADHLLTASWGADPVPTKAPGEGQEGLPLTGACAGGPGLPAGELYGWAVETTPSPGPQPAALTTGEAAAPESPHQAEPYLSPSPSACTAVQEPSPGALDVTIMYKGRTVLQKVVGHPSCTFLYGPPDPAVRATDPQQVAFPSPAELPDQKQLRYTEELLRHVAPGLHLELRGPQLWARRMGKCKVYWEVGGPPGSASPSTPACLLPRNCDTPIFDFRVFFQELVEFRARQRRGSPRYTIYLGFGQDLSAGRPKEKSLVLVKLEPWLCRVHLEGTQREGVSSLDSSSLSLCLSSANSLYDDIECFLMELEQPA
`GACGGACTGGGTTGCGGGACGTGCTAG` has a log fluorescence of -0.155 z-score.
`GACGGACTGAGGTATCGGGACGTGCTA` gave a log fluorescence of -0.4 z-score.
`ATAGGTCTCCTACTGCTTTAGTGCTAG` gave a log fluorescence of -0.254 z-score.
`TCACCTTTACTTTCTTTACTGTGCTAG` gave a log fluorescence of 0.949 z-score.
The log fluorescence of `GACGGTATCGAGTTTCGGGACGTGCTA` is reported as 3.28 z-score.
With `TTAGATTTCAGTTCCGAGTAGTGCTAG` the log fluorescence was 1.14 z-score.
With `ACCCATCTCAAGTAGCCTAGCGTGCTA` the log fluorescence was -0.0974 z-score.
`CTTTCTCTGCTCTTTTCAACAGTGCTA` has a log fluorescence of 2.37 z-score.
For `TCATTTTTTTCCCTGAAACTGTGCTAG`, the log fluorescence was 1.08 z-score.
With `TCAATTCTTTTTATGCTACTGTGCTAG` the log fluorescence was 0.805 z-score.

Sample 5 — technique: competition protein-binding microarray; form: double-stranded DNA, one strand shown; sample: in vitro; concentration: 2 µM; with: Pho4 competitor, 0.05 µM; reading: higher = stronger binding
Target: Centromere-binding protein 1, full length, His-tagged (CBF1, Saccharomyces cerevisiae, UniProt P17106, residues 1-351)
Chain of UniProt P17106 (whole entry, looked up): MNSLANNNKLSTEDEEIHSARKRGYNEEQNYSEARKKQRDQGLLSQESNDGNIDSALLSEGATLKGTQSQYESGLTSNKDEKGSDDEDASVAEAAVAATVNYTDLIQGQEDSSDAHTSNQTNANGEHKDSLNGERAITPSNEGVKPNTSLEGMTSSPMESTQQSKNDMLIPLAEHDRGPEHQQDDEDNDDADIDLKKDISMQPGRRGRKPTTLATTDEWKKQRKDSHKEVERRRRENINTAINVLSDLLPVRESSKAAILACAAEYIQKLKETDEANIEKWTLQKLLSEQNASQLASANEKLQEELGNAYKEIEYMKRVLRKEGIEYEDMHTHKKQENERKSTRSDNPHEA
Setting: whole 60-bp probe, lowest competitor level
For `ACACCTGGGTTTCCGCACGTGTTTCACCATCCCAAAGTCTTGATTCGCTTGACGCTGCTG`, the fluorescence intensity was 1190 a.u.
`TGTATCCTTTGTAGGCTCGTGCTGTATCAACCTACTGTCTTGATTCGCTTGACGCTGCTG` has a fluorescence intensity of 87.1 a.u.
The fluorescence intensity of `GGTTTGGGTCTTGTTCTCGTGGAGGATCCTTTTGGTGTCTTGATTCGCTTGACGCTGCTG` is reported as 85.5 a.u.
For `CGGGGTTAAGTTTGCAACGTGGGTGGCTTGCAGCAGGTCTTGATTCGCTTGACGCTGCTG`, the fluorescence intensity was 92.3 a.u.
With `CCGCTATATACTTTTCACGTGGGACCTGCAAAATAAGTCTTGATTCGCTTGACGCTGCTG` the fluorescence intensity was 839 a.u.
`AAATTACTAAGTTGTCGCGTGGGTGACGCCGTATGAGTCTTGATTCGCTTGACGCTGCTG` has a fluorescence intensity of 84.2 a.u.
For `AAAGCGGTAATTTGAAACGTGGGTGCAGATATCTATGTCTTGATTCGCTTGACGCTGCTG`, the fluorescence intensity was 109 a.u.
`CATACCCAACCTTGAGTCGTGGGTGAAGATATTTGTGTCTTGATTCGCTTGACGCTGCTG` has a fluorescence intensity of 70.6 a.u.
The fluorescence intensity of `CTTCTGTAAATTTGTCACTCTACTTGACGCGCCCCGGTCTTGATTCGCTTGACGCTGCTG` is reported as 79.7 a.u.
For `CTTCTGTAAATTTGGAATGTGGGTGGACGCGCCCCGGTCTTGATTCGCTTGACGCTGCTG`, the fluorescence intensity was 88.9 a.u.
`TAGGGGCACTCTAACCTCGTGTAACGCGTAACCTTCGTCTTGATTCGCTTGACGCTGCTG` has a fluorescence intensity of 78.7 a.u.
With `TGCTGTAAGCAAAAGCACGGGTGGCCAAAGCAAAGGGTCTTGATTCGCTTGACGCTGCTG` the fluorescence intensity was 74.5 a.u.
For `CATACCCAACCTTGCCATGTGGGTGAAGATATTTGTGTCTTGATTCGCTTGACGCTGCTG`, the fluorescence intensity was 76.6 a.u.
For `GCTCAAAAACCCCGTCACGTCATAAATCTTTCTGTTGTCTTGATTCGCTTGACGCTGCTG`, the fluorescence intensity was 111 a.u.
For `GATCAAACTGAGGATGACCTGGACATCTTGGTCGCTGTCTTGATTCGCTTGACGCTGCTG`, the fluorescence intensity was 86.3 a.u.

Some of these lines once more (sample 4):
`GACGGACTGAGGTATCGGGACGTGCTA` gave a log fluorescence of -0.4 z-score.
`ATAGGTCTCCTACTGCTTTAGTGCTAG` gave a log fluorescence of -0.254 z-score.
`TCACCTTTACTTTCTTTACTGTGCTAG` gave a log fluorescence of 0.949 z-score.
The log fluorescence of `GACGGTATCGAGTTTCGGGACGTGCTA` is reported as 3.28 z-score.
With `TTAGATTTCAGTTCCGAGTAGTGCTAG` the log fluorescence was 1.14 z-score.
With `ACCCATCTCAAGTAGCCTAGCGTGCTA` the log fluorescence was -0.0974 z-score.
`CTTTCTCTGCTCTTTTCAACAGTGCTA` has a log fluorescence of 2.37 z-score.
For `TCATTTTTTTCCCTGAAACTGTGCTAG`, the log fluorescence was 1.08 z-score.
